Measured values gathered from unrelated publications.
Each line is one published result; not all experiments were run side by side. Several values in a cell are separate wells, animals, samples, runs or records. ± marks the error that the study gave.
Gria2/Glutamate receptor 3: Gria2/Glutamate receptor 3 (Rattus norvegicus, UniProt P19491+P19492)
UniProt P19492, sequence (whole entry, looked up): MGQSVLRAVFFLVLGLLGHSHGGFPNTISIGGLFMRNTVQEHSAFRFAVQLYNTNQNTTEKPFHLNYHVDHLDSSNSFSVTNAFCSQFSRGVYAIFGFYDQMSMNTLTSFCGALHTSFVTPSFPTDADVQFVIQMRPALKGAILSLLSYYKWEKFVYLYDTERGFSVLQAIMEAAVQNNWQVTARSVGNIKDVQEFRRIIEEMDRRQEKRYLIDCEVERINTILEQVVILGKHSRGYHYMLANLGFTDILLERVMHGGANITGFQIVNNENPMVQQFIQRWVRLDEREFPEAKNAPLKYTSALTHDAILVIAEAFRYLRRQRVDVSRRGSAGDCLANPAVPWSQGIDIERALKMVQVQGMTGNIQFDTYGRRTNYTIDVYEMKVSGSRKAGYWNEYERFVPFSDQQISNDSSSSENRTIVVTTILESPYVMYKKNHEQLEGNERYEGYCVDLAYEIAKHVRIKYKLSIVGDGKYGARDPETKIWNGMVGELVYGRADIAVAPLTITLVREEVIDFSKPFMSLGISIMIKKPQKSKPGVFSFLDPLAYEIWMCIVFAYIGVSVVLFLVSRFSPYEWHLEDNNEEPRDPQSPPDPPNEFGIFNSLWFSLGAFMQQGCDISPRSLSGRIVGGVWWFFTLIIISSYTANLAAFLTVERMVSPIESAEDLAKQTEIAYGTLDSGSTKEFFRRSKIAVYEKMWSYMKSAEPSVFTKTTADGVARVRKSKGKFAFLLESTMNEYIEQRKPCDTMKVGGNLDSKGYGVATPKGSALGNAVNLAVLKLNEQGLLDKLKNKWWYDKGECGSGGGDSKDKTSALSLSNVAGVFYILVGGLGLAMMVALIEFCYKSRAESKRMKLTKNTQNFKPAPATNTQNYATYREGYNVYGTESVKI
UniProt P19491, sequence (whole entry, looked up): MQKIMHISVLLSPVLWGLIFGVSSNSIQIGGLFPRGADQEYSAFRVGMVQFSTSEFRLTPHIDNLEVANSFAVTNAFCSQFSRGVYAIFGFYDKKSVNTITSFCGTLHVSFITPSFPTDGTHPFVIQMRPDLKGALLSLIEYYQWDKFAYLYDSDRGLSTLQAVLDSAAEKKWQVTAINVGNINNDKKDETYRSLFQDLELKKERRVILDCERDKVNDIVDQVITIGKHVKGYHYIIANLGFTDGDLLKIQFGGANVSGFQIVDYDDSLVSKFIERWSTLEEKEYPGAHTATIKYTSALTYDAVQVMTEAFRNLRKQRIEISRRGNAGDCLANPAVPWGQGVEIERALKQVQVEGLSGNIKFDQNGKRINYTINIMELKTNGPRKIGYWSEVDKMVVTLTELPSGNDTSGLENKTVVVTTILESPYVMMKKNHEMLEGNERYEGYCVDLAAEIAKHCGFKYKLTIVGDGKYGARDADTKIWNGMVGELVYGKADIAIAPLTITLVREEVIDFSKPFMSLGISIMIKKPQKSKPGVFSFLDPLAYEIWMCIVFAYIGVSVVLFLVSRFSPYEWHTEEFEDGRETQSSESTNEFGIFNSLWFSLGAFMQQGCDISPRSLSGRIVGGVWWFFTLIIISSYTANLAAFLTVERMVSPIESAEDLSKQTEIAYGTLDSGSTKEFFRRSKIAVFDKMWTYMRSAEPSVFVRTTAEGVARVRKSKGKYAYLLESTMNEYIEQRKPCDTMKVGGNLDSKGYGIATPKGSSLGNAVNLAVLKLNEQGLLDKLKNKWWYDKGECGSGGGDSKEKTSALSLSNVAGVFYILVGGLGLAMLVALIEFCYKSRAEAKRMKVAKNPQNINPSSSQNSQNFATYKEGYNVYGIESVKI
UniProt P16234, sequence (whole entry, looked up): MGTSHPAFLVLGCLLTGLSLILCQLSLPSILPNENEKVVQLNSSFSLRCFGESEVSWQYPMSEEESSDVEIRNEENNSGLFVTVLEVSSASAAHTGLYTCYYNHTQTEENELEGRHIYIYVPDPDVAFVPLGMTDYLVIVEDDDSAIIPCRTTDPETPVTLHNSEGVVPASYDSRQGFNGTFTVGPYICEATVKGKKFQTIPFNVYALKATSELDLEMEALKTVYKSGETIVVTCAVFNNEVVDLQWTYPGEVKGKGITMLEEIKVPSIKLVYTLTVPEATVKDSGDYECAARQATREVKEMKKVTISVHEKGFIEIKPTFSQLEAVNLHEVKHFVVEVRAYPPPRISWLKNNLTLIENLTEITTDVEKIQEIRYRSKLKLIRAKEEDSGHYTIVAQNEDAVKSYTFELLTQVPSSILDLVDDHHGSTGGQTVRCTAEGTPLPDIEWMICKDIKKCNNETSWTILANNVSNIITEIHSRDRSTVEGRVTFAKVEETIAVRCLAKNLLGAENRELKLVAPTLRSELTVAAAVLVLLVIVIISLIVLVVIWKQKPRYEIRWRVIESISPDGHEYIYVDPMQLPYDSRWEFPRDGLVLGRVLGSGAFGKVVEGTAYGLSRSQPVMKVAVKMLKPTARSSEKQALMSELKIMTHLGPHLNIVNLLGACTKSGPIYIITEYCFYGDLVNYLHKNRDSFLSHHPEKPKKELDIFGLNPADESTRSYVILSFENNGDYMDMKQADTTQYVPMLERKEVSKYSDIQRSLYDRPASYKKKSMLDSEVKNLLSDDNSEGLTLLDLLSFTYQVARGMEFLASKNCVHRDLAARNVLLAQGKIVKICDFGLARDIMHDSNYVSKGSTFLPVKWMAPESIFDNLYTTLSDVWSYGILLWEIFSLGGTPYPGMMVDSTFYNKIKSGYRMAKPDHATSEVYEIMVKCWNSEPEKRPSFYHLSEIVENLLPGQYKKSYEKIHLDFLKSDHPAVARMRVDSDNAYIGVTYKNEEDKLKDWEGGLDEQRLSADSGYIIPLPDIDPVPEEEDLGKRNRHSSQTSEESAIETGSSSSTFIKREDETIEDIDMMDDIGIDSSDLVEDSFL
UniProt P11309, sequence (whole entry, looked up): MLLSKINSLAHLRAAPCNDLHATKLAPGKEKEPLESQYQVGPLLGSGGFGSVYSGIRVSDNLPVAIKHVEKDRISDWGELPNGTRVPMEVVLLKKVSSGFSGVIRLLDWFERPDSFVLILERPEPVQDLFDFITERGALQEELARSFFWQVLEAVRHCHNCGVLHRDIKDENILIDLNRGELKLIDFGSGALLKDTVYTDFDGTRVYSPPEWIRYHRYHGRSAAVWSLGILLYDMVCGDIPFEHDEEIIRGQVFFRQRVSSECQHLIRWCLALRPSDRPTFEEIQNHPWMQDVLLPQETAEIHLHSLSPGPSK
UniProt P03114, sequence (whole entry, looked up): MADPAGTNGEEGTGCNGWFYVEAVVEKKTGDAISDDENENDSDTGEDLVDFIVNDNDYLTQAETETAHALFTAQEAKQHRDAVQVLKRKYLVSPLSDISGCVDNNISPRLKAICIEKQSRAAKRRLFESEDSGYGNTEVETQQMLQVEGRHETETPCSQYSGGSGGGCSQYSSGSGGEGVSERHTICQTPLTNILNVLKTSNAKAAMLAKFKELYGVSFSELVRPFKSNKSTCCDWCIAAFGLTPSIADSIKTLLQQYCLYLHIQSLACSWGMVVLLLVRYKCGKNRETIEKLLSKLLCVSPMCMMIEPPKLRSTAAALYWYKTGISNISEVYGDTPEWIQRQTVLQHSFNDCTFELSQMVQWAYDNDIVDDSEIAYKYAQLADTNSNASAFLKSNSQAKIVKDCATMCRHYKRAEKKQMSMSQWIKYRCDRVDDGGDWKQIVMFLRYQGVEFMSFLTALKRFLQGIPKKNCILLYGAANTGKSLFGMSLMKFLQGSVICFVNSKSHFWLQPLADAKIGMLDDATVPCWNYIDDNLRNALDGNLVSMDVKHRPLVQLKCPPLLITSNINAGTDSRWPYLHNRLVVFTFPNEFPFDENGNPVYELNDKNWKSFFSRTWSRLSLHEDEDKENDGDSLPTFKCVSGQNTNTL
UniProt Q8NFU5, sequence (whole entry, looked up): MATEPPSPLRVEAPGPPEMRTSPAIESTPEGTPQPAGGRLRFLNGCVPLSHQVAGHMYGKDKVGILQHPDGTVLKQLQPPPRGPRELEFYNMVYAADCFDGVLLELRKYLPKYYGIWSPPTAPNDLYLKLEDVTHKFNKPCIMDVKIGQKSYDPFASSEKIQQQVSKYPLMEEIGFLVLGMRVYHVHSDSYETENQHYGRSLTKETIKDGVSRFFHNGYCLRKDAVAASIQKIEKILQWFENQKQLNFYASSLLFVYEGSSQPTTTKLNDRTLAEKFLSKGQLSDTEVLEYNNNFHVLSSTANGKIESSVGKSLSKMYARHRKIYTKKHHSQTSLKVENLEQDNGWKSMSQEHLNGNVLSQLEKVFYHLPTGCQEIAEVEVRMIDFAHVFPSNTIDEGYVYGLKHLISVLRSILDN
UniProt P23141, sequence (whole entry, looked up): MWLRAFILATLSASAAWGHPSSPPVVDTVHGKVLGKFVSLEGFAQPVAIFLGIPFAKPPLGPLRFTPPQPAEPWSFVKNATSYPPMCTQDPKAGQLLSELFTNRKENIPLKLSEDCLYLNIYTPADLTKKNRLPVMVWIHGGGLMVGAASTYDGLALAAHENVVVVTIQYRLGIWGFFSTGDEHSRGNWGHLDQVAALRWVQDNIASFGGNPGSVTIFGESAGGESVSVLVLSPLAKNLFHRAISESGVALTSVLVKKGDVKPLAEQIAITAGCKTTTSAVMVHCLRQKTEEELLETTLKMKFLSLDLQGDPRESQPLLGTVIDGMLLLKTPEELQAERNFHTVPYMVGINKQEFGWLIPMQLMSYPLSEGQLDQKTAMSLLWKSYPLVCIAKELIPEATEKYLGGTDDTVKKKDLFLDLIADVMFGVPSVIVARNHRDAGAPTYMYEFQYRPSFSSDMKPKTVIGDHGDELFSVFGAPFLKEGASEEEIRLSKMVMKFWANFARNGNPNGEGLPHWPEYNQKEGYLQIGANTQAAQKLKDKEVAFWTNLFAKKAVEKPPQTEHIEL

O=C(O)Cc1cc2c(cc1C(=O)c1ccccc1I)OCO2 — IC50 (Gria2/Glutamate receptor 3; ion current, patch clamp): 4.79 µM
CN1CCN(c2cccc(-c3ccc4ncnc(Nc5ccc(OCc6cccc(F)c6)c(Cl)c5)c4c3)c2)CC1 — EC50 (Leishmania major; intracellular amastigote growth, luciferase; RAW264.7 macrophages): 4.2 µM
O=C(/C=C/c1ccc(O)cc1)c1ccc(O)cc1 — IC50 (mushroom tyrosinase; enzyme activity, inhibitor; 10 min, added: L-tyrosine): 24 µg/mL
COC(=O)Cc1cc2c(cc1C(=O)c1ccccc1Br)OCO2 — IC50 (Gria2/Glutamate receptor 3; ion current, antagonist, patch clamp): 5.5 µM
N[C@@H](COC(c1cccc(F)c1)c1ccccc1OCc1ccccc1)C(=O)O (some centres unmarked) — IC50 (glycine transporter 2 (Xenopus tropicalis, UniProt A0A7D9NK84); glycine uptake, inhibitor; HEK293F; added: 10 nM [3H]glycine): ~0.0521 µM and 0.0521 µM
C=C(NC(=O)c1csc(-c2nc3c(cc2O)-c2nc(cs2)C(=O)NC(C(C)O)C(=O)NC(=C(C)OC)c2nc(cs2)C(=O)NC2c4nc(cs4)C(=O)NC(COC(=O)c4c5c6c(cccc6n4O)COC(=O)C(OC4CC(C)(O)C(N(C)C)C(C)O4)C2OC5)c2nc-3cs2)n1)C(N)=O (centres unmarked) — Tmax (male cynomolgus monkey, plasma; intravenous, 9 mg/kg, single dose, infusion): 31.8 min
CCN(CC)CC(=O)Nc1cccc(-n2cc(-c3ccc4ccc(-c5cn(-c6cccc(NC(=O)CN(CC)CC)c6)nn5)cc4c3)nn2)c1 — IC50 (MKNK1 (Homo sapiens, UniProt Q9BUB5); enzyme activity, inhibitor): > 10 µM
CO[C@@H]1[C@@H](OC(=O)c2ccc(C)[nH]2)[C@@H](O)[C@H](Oc2ccc3c(O)c(NC(=O)c4c[nH]c(C(=O)Nc5c(O)c6ccc(O[C@@H]7OC(C)(C)[C@H](OC)[C@@H](OC(=O)c8ccc(C)[nH]8)[C@H]7O)c(C)c6oc5=O)c4C)c(=O)oc3c2C)OC1(C)C — IC50 (Replication protein E1, helicase domain (E1, Human papillomavirus type 16, UniProt P03114); fork unwinding, inhibitor): ~170 µM
COc1cc(C[C@H]2C(=O)OC[C@@H]2Cc2ccc(OC)c(OC)c2)ccc1O — IC50 (CES1 (Homo sapiens, UniProt P23141); enzyme activity, inhibitor): 6.5 µM
Cc1ncsc1-c1ccc(C(C)NC(=O)C2CC(O)CN2C(=O)C(NC(=O)CCCCCCCCCCN2CCCC(Nc3ncc(Cl)c(Nc4ccccc4S(=O)(=O)C(C)C)n3)C2)C(C)(C)C)cc1 (centres unmarked) — log2 fold change (22Rv1; RNA-seq, item: PWWP2B mRNA; concentration not given; baseline: DMSO): -1.03
C#CCCn1nc(C)c2c(Cl)c(C(=O)NCC3CC(C)=NO3)cnc21 (centres unmarked) — IC50 (60 kDa heat shock protein, mitochondrial, with HSP10 (Homo sapiens, UniProt P10809); HSP60/10-mediated MDH refolding; 5 min, preincubation before ATP, added: denatured malate dehydrogenase): > 100 µM
Cc1oc(C)c(-c2ccc(N(CC(C)C)C3CCCCC3)c(NC(=O)Nc3ccc(B4OC(C)(C)C(C)(C)O4)cc3)c2)c1C(=O)O — IC50 (IDO1 (Homo sapiens, UniProt P14902); enzyme activity, inhibitor, recombinant enzyme, item: kynurenine; 20 min, 2% DMSO, added: L-tryptophan): 17 ± 5 µM
CCCC[C@H](NC(=O)CCCCCCCNC(=O)CN1CCN(CC(=O)O)CCN(CC(=O)O)CC1)C(=O)N[C@H]1CC(=O)NCCCC[C@@H](C(N)=O)NC(=O)[C@H](Cc2c[nH]c3ccccc23)NC(=O)[C@H](CCCNC(=N)N)NC(=O)[C@@H](Cc2ccccc2)NC(=O)[C@H](Cc2c[nH]cn2)NC1=O [technetium-99m labelled] — tissue uptake (C57 mouse, brain; intravenous, 0.037 MBq, 0.5 h): 0.13 ± 0.14 %ID/g
COC1CN([C@H]2CC[C@H]([C@@]3(C)Oc4c(Cl)cc(C(=O)NCc5c(SC)cc(C)[nH]c5=O)c(C)c4O3)CC2)C1 — log2 fold change (RNA-seq, item: PLSCR4 mouse homolog; mouse, HT-1376 xenograft, whole blood; dose not given; baseline: vehicle): 1.33
Cn1cc(-c2ccc3[nH]c4nccc(N[C@H]5CC[C@H](N6CCOCC6)CC5)c4c3c2)cn1 — IC50 (PIM1 (Homo sapiens, UniProt P11309); enzyme activity, inhibitor, radiometric): 0.053 µM
O=C1Nc2c(Br)cccc2/C1=C1/Nc2ccccc2C1=NO — IC50 (PI4KB (Homo sapiens, UniProt Q9UBF8)): > 9.1 µM
FC(F)(F)c1cccc(CNc2nc(NC3CCN(Cc4ccccc4)CC3)c3nc[nH]c3n2)c1 — IC50 (IPMK (Homo sapiens, UniProt Q8NFU5); enzyme activity, inhibitor): 4 µM
Cc1ccc(C(=O)Nc2ccnc(S(N)(=O)=O)c2)c(N2CCCC(F)(F)CC2)n1 — IC50 (SCN3A (Homo sapiens, UniProt Q9NY46); Nav1.3 sodium current, inhibitor, automated patch clamp): > 33.8 µM
CCCC[C@H](NC(=O)COCCOCCNC(=O)CN1CCN(CC(=O)O)CCN(CC(=O)O)CC1)C(=O)N[C@H]1CC(=O)NCCCC[C@@H](C(N)=O)NC(=O)[C@H](Cc2c[nH]c3ccccc23)NC(=O)[C@H](CCCNC(=N)N)NC(=O)[C@@H](Cc2ccccc2)NC(=O)[C@H](Cc2c[nH]cn2)NC1=O [technetium-99m labelled] — tissue uptake (C57 mouse, pancreas; intravenous, 0.037 MBq, 0.5 h): 0.45 ± 0.15 %ID/g
O=S(=O)(c1ccc(-c2ccc3ncnc(Nc4ccccc4)c3c2)cc1)N1CCOCC1 — EC50 (Leishmania major; intracellular amastigote growth, luciferase; RAW264.7 macrophages): > 4 µM
O=C(CCc1ccccc1)N1C(=O)C2(NC(c3ccc(F)cc3)C3(C(=O)Nc4ccccc43)N2Cc2ccc(F)cc2)c2ccccc21 (centres unmarked) — IC50 (PIK3CA (Homo sapiens, UniProt P42336); enzyme activity, inhibitor, ADP detection): 0.199 µM
Cc1cc(NC2CCN(C)CC2)ccc1-c1cc2c(N3CCC[C@H](C(=O)NCc4ccc(OC(F)(F)F)cc4)C3)ncnc2[nH]1 — IC50 (MAPK3 (Homo sapiens, UniProt P27361); enzyme activity, inhibitor, mobility shift): > 8 µM
Cc1nn(-c2cccc(N)c2)c(=O)c2cnc(Nc3ccc(N4CCNCC4)cc3)nc12 — IC50 (PDGFRA (Homo sapiens, UniProt P16234); enzyme activity, inhibitor): 2.42 µM

Repeated from above:
Cn1cc(-c2ccc3[nH]c4nccc(N[C@H]5CC[C@H](N6CCOCC6)CC5)c4c3c2)cn1 — IC50 (PIM1 (Homo sapiens, UniProt P11309); enzyme activity, inhibitor, radiometric): 0.053 µM
C=C(NC(=O)c1csc(-c2nc3c(cc2O)-c2nc(cs2)C(=O)NC(C(C)O)C(=O)NC(=C(C)OC)c2nc(cs2)C(=O)NC2c4nc(cs4)C(=O)NC(COC(=O)c4c5c6c(cccc6n4O)COC(=O)C(OC4CC(C)(O)C(N(C)C)C(C)O4)C2OC5)c2nc-3cs2)n1)C(N)=O (centres unmarked) — Tmax (male cynomolgus monkey, plasma; intravenous, 9 mg/kg, single dose, infusion): 31.8 min
CCCC[C@H](NC(=O)CCCCCCCNC(=O)CN1CCN(CC(=O)O)CCN(CC(=O)O)CC1)C(=O)N[C@H]1CC(=O)NCCCC[C@@H](C(N)=O)NC(=O)[C@H](Cc2c[nH]c3ccccc23)NC(=O)[C@H](CCCNC(=N)N)NC(=O)[C@@H](Cc2ccccc2)NC(=O)[C@H](Cc2c[nH]cn2)NC1=O [technetium-99m labelled] — tissue uptake (C57 mouse, brain; intravenous, 0.037 MBq, 0.5 h): 0.13 ± 0.14 %ID/g
